Published values pooled from the literature.
Each numbered part is a random draw from the data of one study; scales do not carry over between parts. Several values in a cell are separate wells, animals, samples, runs or records.
Sequence of UniProt P25098 (whole entry, looked up): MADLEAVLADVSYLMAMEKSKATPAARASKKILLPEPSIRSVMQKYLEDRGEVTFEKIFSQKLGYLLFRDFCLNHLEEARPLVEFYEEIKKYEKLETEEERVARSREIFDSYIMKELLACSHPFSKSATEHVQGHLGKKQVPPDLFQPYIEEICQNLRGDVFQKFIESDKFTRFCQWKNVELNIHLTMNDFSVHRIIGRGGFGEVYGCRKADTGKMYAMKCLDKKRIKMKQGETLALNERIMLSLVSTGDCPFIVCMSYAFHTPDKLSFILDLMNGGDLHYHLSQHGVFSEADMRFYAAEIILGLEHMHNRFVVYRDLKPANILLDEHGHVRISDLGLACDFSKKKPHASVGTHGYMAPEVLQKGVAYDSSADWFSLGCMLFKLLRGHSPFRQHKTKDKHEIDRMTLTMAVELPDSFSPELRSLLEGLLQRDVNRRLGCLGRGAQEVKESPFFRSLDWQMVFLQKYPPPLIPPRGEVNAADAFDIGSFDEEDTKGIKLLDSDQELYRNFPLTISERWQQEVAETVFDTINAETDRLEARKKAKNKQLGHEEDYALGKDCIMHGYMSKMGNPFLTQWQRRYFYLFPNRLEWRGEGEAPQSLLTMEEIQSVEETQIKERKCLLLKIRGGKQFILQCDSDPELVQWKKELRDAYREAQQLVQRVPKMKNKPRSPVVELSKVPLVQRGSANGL
Sequence of UniProt Q9P286 (whole entry, looked up): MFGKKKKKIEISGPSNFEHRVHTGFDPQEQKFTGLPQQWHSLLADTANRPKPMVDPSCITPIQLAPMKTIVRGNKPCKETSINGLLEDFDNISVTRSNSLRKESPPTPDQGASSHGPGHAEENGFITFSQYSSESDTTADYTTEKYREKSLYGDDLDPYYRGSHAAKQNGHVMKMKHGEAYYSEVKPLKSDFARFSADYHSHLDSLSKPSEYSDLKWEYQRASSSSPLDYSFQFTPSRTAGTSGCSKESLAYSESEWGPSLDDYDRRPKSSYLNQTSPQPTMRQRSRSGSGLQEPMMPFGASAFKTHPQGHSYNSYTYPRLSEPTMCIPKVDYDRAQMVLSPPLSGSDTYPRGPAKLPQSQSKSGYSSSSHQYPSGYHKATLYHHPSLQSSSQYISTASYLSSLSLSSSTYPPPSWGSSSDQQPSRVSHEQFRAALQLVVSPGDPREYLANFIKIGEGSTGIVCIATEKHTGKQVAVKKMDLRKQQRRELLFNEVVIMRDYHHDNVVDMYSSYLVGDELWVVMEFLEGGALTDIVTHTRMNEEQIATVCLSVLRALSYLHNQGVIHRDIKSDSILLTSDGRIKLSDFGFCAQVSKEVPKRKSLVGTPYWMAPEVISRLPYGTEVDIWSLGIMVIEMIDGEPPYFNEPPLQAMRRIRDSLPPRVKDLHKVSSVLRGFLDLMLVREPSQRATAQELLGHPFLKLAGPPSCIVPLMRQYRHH
Sequence of UniProt P42336 (whole entry, unmodified, looked up): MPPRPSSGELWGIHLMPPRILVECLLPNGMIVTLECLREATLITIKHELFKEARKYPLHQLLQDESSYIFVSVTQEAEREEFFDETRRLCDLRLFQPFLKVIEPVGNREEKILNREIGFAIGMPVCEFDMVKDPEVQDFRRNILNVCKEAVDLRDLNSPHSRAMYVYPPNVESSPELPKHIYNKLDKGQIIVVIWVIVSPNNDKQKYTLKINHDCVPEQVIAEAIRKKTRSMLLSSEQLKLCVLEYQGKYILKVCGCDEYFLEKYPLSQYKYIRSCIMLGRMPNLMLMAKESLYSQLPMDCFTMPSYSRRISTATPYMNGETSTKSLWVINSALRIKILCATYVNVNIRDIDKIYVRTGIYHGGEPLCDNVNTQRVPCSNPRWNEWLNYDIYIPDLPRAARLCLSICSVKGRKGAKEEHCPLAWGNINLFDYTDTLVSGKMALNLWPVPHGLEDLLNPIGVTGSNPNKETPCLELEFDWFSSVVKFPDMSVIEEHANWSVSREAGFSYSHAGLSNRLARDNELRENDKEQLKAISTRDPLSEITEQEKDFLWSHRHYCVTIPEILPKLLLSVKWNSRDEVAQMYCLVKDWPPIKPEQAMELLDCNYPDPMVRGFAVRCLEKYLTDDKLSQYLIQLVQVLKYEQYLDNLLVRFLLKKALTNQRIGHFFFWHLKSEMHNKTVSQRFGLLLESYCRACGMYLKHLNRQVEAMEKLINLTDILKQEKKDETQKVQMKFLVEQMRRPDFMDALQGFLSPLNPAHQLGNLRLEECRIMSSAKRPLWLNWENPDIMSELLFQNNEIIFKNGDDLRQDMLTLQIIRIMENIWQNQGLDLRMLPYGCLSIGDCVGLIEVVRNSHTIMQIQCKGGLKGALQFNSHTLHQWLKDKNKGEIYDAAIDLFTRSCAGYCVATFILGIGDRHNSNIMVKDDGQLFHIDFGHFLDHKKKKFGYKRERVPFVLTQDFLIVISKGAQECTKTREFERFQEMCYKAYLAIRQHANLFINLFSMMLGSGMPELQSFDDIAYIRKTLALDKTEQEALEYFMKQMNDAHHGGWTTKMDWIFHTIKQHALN
Sequence of UniProt P42679 (whole entry, looked up): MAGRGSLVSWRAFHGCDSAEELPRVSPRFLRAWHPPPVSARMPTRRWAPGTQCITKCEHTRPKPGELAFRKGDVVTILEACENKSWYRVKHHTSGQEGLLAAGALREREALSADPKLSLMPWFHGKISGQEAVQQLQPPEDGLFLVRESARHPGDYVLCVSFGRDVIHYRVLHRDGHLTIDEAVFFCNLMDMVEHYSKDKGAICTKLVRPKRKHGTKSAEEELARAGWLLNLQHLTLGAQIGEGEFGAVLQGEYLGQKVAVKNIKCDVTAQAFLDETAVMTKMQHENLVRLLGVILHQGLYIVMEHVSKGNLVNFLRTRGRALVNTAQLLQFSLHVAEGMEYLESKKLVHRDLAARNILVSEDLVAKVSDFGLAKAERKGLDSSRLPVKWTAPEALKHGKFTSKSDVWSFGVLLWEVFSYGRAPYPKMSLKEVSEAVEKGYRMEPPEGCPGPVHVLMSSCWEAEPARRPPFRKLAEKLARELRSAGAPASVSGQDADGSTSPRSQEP
Sequence of UniProt Q9Y6E0 (whole entry, looked up): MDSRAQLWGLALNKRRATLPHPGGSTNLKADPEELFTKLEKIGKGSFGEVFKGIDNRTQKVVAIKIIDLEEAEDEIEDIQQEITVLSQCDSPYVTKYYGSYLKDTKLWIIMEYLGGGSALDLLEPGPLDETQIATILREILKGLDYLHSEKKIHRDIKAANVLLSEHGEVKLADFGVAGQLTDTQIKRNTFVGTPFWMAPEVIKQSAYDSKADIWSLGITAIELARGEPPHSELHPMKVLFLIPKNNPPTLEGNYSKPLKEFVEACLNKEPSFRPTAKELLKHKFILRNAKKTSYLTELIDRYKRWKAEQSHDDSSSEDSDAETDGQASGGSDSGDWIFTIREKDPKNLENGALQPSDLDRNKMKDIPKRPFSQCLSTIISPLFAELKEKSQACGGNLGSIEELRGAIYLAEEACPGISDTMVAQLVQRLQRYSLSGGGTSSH
Sequence of UniProt P50613 (whole entry, looked up): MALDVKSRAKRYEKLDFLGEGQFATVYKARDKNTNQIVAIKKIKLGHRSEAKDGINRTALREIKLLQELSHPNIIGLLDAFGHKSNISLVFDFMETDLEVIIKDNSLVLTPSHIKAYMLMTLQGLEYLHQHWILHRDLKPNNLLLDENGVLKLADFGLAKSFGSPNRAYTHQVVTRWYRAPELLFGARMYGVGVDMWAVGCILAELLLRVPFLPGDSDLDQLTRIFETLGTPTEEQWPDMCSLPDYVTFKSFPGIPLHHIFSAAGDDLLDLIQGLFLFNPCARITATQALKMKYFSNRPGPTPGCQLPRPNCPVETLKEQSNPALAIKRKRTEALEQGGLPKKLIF

Series 1 — host: nude mouse, HH xenograft; dose: dose not given
Compound: CN1CC[C@H](c2c(O)cc(O)c3c(=O)cc(-c4ccccc4Cl)oc23)[C@H](O)C1
| time | tumour volume |
| --- | --- |
| day 17 | 144 mm³ and 126 mm³ and 356 mm³ and 234 mm³ and 200 mm³ and 75.7 mm³ and 109 mm³ and 252 mm³ |
| day 10 | 90.4 mm³ and 50.2 mm³ and 165 mm³ and 191 mm³ and 116 mm³ and 60.7 mm³ and 109 mm³ |
| day 6 | 96.8 mm³ and 90.4 mm³ and 103 mm³ and 127 mm³ and 108 mm³ and 80.6 mm³ and 102 mm³ and 81.9 mm³ |
| day 12 | 110 mm³ and 43.5 mm³ and 180 mm³ and 127 mm³ and 57.7 mm³ and 80.6 mm³ and 71.5 mm³ |

Series 2 — effect on: cell-free assay; technique: competition with immobilised ligand; tested at: 1 µM
SMILES: COc1cc(-c2cn(C3CCc4ccccc4N(CC(F)(F)F)C3=O)nn2)ccc1-n1ccc(C)n1 (stereo not shown)
| target | remaining binding |
| --- | --- |
| LIM domain kinase 1 (LIMK1, Homo sapiens, UniProt P53667) | 100% |
| PLK3 (Homo sapiens, UniProt Q9H4B4) | 96% |
| CDK7 (Homo sapiens, UniProt P50613) | 87% |
| STK24 (Homo sapiens, UniProt Q9Y6E0) | 97% |
| MATK (Homo sapiens, UniProt P42679) | 80% |
| PIK3CA (Homo sapiens, UniProt P42336, E545K) | 84% |
| SRPK3 (Homo sapiens, UniProt Q9UPE1) | 100% |
| IGF1R (Homo sapiens, UniProt P08069) | 100% |
| CDC42BPA (Homo sapiens, UniProt Q5VT25) | 100% |
| PAK5 (Homo sapiens, UniProt Q9P286) | 96% |
| PRKACB (Homo sapiens, UniProt P22694) | 81% |
| GRK2 (Homo sapiens, UniProt P25098) | 87% |
| CDK11B (Homo sapiens, UniProt P21127) | 100% |

Series 3 — effect on: enzyme activity; action: inhibitor; tested at: 0.5 µM; reference: control
Target: Non-receptor tyrosine-protein kinase TYK2 (TYK2, Homo sapiens, UniProt P29597)
Sequence of UniProt P29597 (whole entry, looked up): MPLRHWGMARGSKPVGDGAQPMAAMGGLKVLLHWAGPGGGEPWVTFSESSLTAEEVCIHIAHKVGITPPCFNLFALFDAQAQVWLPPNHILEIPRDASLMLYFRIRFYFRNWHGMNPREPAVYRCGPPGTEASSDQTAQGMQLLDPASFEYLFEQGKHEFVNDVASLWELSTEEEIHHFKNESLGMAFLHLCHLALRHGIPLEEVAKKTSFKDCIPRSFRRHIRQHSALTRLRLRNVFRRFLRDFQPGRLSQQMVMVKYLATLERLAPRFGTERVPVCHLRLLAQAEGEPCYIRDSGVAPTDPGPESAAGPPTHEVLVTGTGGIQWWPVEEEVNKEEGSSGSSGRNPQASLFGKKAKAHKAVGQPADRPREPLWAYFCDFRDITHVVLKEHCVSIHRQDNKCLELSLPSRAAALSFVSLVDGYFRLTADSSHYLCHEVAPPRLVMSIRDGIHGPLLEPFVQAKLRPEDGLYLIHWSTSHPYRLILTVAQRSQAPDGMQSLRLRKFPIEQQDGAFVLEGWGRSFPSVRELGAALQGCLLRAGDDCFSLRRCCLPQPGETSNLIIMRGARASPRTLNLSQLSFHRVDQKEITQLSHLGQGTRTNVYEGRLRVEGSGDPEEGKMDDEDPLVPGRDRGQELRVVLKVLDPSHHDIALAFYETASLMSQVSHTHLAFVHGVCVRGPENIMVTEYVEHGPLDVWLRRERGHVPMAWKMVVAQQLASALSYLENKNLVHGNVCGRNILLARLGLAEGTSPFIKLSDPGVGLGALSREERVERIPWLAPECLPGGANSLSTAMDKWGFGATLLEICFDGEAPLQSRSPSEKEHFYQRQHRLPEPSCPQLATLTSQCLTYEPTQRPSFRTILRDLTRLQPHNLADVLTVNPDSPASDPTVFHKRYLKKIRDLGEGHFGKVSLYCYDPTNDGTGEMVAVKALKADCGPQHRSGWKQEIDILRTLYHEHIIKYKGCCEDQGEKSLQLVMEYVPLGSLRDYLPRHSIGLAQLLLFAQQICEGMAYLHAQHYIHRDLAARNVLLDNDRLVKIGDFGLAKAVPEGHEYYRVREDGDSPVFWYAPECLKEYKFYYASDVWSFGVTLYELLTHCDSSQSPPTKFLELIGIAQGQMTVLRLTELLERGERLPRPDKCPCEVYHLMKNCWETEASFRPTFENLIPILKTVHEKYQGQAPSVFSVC
| Structure (SMILES) | remaining activity [%] |
| --- | --- |
| Cc1ccc(NC(=O)c2ccc(CN3CCN(C)CC3)cc2)cc1Nc1nc(-c2cccnc2)cs1 | 101 |
| O=C1NC(=O)C(c2cn(CCCn3ccnc3)c3ccccc23)=C1Nc1ccccc1 | 83.4 |
| COc1cc2ncnc(Nc3ccc(F)c(Cl)c3)c2cc1OCCCN1CCOCC1 | 102 |
| COc1cc2ncnc(Nc3ccc(Oc4ccccc4)cc3)c2cc1OC | 107 |
| O=C(O)c1ccc2c3c1cccc3c(=O)n1c3ccccc3nc21 | 22.8 |
| Cn1sc(=O)n(Cc2ccccc2)c1=O | 96 |
| COc1ccc(OC)c2c(=S)c3ccccc3[nH]c12 | 108 |
| O=C1NC(=O)C(c2cn(CCCO)c3ncccc23)=C1c1cnccn1 | 96.9 |
| Cc1cccc(-c2[nH]c(C(C)(C)C)nc2-c2ccc3c(c2)OCO3)n1 | 102 |
| Oc1ccc(-c2nc(-c3ccncc3)c(-c3ccc(F)cc3)[nH]2)cc1 | 106 |
| Cc1nc(-c2ccccc2)c(-c2ccncc2)o1 | 109 |
| COc1cc2nccc(Oc3ccc(NC(=S)NC(=O)c4ccccc4C)cc3)c2cc1OC | 88.5 |
| O=c1c2ccccc2[nH]c(=S)n1CCN1CCC(=C(c2ccc(F)cc2)c2ccc(F)cc2)CC1 | 107 |
| C#Cc1cccc(Nc2ncnc3cc(OCCOC)c(OCCOC)cc23)c1 | 99.6 |
| Cn1c2ccccc2c2c3c(c4c5ccccc5n(CCC#N)c4c21)CNC3=O | 2.62 |
| Cc1ccc(Nc2nccc(N(C)c3ccc4c(C)n(C)nc4c3)n2)cc1S(N)(=O)=O | 94 |

Series 4 — cell line: A-375; tested at: 100 µM; time: 18 h
| SMILES | viability |
| --- | --- |
| COc1cc(N)c(Cl)cc1C(=O)N[C@@H]1CCN(CCCOc2ccc(F)cc2)C[C@@H]1OC (racemic) | 83.4% |
| CC(C(=O)O)c1ccc2c(c1)CC(=O)c1ccccc1S2 (stereo not shown) | 97.5% |
| Cc1cccc(N(C)C(=S)Oc2ccc3ccccc3c2)c1 | 83.9% |
| CC(=O)c1ccc(S(=O)(=O)NC(=O)NC2CCCCC2)cc1 | 69.4% |
| COc1ccc2cc1Oc1ccc(cc1)C[C@H]1c3cc(c(OC)cc3CCN1C)Oc1c(OC)c(OC)cc3c1[C@H](C2)N(C)CC3 | 10% |
| CC(=O)OCC[N+](C)(C)C | 93.2% |
| CCN(CCCCOC(=O)c1ccc(OC)c(OC)c1)C(C)Cc1ccc(OC)cc1 (stereo not shown) | 42.7% |
| COc1ccc2cccc(CCNC(C)=O)c2c1 | 112% |
| C=C1CCN([C@H](C)[C@](O)(Cn2cncn2)c2ccc(F)cc2F)CC1 | 14.6% |
| C[C@]12CC[C@@H]3c4ccc(O)cc4C[C@@H](CCCCCCCCC[S+]([O-])CCCC(F)(F)C(F)(F)F)[C@H]3[C@@H]1CC[C@@H]2O (stereo partly shown) | 96.7% |
